Measured values of several laboratories.
Every numbered part comes from another study and shows a few of its results, in no order.

Set 1
Target: Histone acetyltransferase KAT6A, winged helix 1, GST fusion (KAT6A, Homo sapiens, UniProt Q92794, residues 1-85)
Technique: protein binding microarray
Molecule type: double-stranded DNA, one strand shown
Sample: in vitro
Concentration: not given
Notes: 8-mer, flanks averaged, mean of 2 arrays, mostly near background
Baseline: not given
Direction: higher = stronger binding
Target sequence (chain): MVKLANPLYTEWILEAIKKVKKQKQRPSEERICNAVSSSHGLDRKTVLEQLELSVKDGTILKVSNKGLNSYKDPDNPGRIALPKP
For `GTGTCGGA`, the E-score was 0.068.
`GGGTTTGA` has an E-score of -0.0576.
`CTTGATCA` has an E-score of -0.0739.
`ATATGAAA` has an E-score of -0.203.
The E-score of `GCTAACCA` is reported as -0.168.
The E-score of `CTTGACTA` is reported as -0.148.
`CTGAGTAC` gave an E-score of -0.0813.

Set 2
Target: Interferon regulatory factor 7, full length, phosphomimetic (IRF7, Homo sapiens, UniProt Q92985, residues 1-503, S471D/S472D/S475D/S476D/S477D/S483D/S484D/S487D)
Technique: protein-binding microarray
Molecule type: double-stranded DNA, one strand shown
Sample: in vitro
Concentration: 2200 nM top
Notes: 60-bp whole probe
Added: salmon DNA 0.4 mg/ml
Baseline: random background probes
Direction: higher = stronger binding
Shared flanks, not repeated: GCCTAGCAC … GTCTTGATTCGCTTGACGCTGCTG
Residues (chain): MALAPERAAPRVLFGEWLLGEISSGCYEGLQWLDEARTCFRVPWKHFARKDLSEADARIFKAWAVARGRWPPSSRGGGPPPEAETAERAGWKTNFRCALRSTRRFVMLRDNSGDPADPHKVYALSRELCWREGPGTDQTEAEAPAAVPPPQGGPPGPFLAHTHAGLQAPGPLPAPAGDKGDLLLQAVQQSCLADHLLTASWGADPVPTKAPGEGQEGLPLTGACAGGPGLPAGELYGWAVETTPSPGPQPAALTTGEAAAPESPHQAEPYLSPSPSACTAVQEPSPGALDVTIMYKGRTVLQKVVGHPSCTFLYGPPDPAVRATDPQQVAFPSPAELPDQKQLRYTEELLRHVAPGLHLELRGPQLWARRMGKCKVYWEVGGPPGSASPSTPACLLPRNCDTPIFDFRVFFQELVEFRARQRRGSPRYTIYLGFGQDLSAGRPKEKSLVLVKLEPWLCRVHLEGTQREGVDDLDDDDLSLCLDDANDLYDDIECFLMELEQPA
`GACGATACCAGACTGGAGACGTGCTAG` — result for “fitted relative affinity”: 0.0758 z-score.
`TTAGGTATCGACTTTAGGTTAGTGCTA`: “fitted relative affinity” 0.571 z-score.
`TCATCATTGCATATAGAACTGTGCTAG` — result for “fitted relative affinity”: 0.684 z-score.
`TCATATCACTATTCTAGGACTGTGCTA` — result for “fitted relative affinity”: 1.05 z-score.
`ACTCCTGTACATCTATGTAGGTGCTAG` — result for “fitted relative affinity”: 1.55 z-score.
For `TTAGGTTTCTACACTGGGTTAGTGCTA`, “fitted relative affinity” read 0.744 z-score.
Under “fitted relative affinity”, `TTAGGTTTCGACTATCGGCTAGTGCTA` is recorded as 3 z-score.
Under “fitted relative affinity”, `GACGATTTGGGGTATCGAGACGTGCTA` is recorded as 0.647 z-score.

Set 3
Target: Sal-like protein 4, full length isoform B (SALL4, Homo sapiens, UniProt Q9UJQ4-2, residues 1-616)
Technique: universal PBM
Molecule type: double-stranded DNA, one strand shown
Sample: in vitro
Concentration: not given
Notes: 8-mer, flanks averaged, mean of replicates
Direction: higher = stronger binding
Residues (chain): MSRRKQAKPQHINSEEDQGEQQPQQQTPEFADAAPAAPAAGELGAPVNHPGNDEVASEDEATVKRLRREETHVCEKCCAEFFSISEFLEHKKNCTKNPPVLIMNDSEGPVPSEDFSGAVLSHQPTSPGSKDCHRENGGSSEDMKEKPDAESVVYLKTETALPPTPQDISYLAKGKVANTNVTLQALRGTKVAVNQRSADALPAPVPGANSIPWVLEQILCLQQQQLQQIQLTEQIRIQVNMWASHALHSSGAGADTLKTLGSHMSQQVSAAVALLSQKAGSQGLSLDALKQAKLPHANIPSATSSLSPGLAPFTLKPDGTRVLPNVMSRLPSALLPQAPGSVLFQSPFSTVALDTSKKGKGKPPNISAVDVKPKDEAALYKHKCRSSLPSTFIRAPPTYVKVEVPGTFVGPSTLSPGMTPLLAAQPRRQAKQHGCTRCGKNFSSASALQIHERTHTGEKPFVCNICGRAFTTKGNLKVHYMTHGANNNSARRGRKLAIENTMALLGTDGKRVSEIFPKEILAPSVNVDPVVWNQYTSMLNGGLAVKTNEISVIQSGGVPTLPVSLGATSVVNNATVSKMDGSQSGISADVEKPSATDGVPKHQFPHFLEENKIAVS
The E-score of `CCCCGACG` is reported as -0.28.
For `ATACCGCC`, the E-score was -0.156.
With `CAAGCCGC` the E-score was -0.331.
With `ACAGGAAC` the E-score was 0.0428.
`AAATAACG` has an E-score of 0.269.

Mixed results
`PhoQ, residues 284 288 289 292 302 303 ASASEQ` gave a fold induction of 20.9 (PhoP, residues 12 14 15 18 19 LHHVQ (Escherichia coli, UniProt P23836); Sort-seq, measured: YFP reporter; E. coli; PhoQ-PhoP variant library, added: 10 µM Mg2+; baseline: high Mg2+ state, higher = stronger signaling).

For quick reference, copied from above (set 2):
`GACGATACCAGACTGGAGACGTGCTAG` — result for “fitted relative affinity”: 0.0758 z-score.
